Measured values collected from several papers.
Compare with care: the assays were run in different laboratories.
Target: Serine/threonine-protein kinase ULK1 (ULK1, Homo sapiens, UniProt O75385)

O=C(c1ccc(Br)cc1)N1CCN(CC(OCc2ccc3ccccc3c2)c2ccc(Cl)cc2Cl)CC1 (stereo not shown)  activity vs control (enzyme activity, inhibitor, ADP detection; 0.1 µM): 109%
Cc1ccc(C(=O)Nc2ccc(CN3CCN(C)CC3)c(C(F)(F)F)c2)cc1C#Cc1cnc2cccnn12  Hill slope (target engagement, NanoBRET; human cells): 46.9
Cc1cnc2nc1Nc1cccc(c1)COC/C=C/COCc1cc(ccc1OCCN1CCOCC1)N2  remaining binding (concentration not given; reference: DMSO control): 96%
COc1cc(Nc2nc(C)cc(-c3cnn4nc(OC)ccc34)n2)cc(C(F)(F)F)c1  remaining binding (binding, competition with immobilised ligand; 1 µM): 86%
CC(C)=CC1OC(C)(C)C2C=C3C(=O)C(Cl)=CC(O)C3C3C(O)C4OC4C(=O)C132 (stereo not shown)  remaining binding (cell-free assay, competition with immobilised ligand; 10 µM): 62%
O=C(CN1CCCCC1)N1CCN(CC(OCc2ccc3ccccc3c2)c2ccc(Cl)cc2Cl)CC1 (stereo not shown)  activity vs control (enzyme activity, inhibitor, ADP detection; 0.1 µM): 167%
Nc1ncc2c(n1)-c1c([nH]c3ccc(C4=CCOCC4)cc13)CCC2  remaining binding (binding, competition with immobilised ligand; 1 µM): 95%
NC(=O)C[C@H]1CCc2sc3ncnc(O[C@H]4CC[C@H](N5CCOCC5)CC4)c3c21  inhibition (enzyme activity, inhibitor; 10 µM): -2%
CNC(=O)C1CCN(c2cc(C)c(F)cc2NC(=O)c2ccc(-c3cc(O)ccc3C)c(C)c2)CC1  remaining binding (binding, competition with immobilised ligand; 1 µM): 92%
Cc1ccc(-c2c(/C=C(\C#N)C(=O)NC(C)C)n(CCCO)c3ncnc(N)c23)cc1  remaining binding (cell-free assay, competition with immobilised ligand; 1 µM): 100%
CCN1CCN(Cc2ccc(C(=O)Nc3ccc(C)c(NCc4cnc5[nH]ccc5c4OC)c3)cc2C(F)(F)F)CC1  remaining binding (binding, competition with immobilised ligand; 1 µM): 52%
COc1c(Cl)cccc1Nc1c(-c2ccncc2C#C[C@@]2(C)CCCN2C(=O)/C=C/CN(C)C)[nH]c2c1C(=O)NCC2  remaining binding (binding, competition with immobilised ligand; 3 µM): 81%
Clc1ccc(C(Cn2ccnc2)OCc2ccc(Br)cc2)c(Cl)c1 (stereo not shown)  activity vs control (enzyme activity, inhibitor, ADP detection; 0.1 µM): 110%
CNC(=O)C[C@H](Cc1ccc(C#N)cc1)NC(=O)c1cc(-c2ccc(CN[C@H](C)c3ccc(C)cc3)o2)ccc1Cl  activity vs control (enzyme activity, inhibitor; 1 µM): 92%
C=CC(=O)N1Cc2nc(-c3cc(-c4cc(Cl)cnc4Cl)c(F)cc3F)n(-c3ccncn3)c2C1  inhibition (cell-free assay, inhibitor; 1 µM): 3.7%
Clc1ccc(COC(Cn2cncn2)c2ccc(Cl)cc2Cl)cc1 (stereo not shown)  activity vs control (enzyme activity, inhibitor, ADP detection; 0.1 µM): 105%
CCn1cc(C(=O)O)c(=O)c2c(N)c(F)c(NC3CCCCC3)cc21  inhibition (kinase activity; 0.1 µM, together with: ATP at Km): -2.8%
CCN1CCN(CC(=O)N2CCN(CC(OCc3ccc4ccccc4c3)c3ccc(Cl)cc3Cl)CC2)CC1 (stereo not shown)  activity vs control (enzyme activity, inhibitor, ADP detection; 0.1 µM): 118%
C[C@]1(O)CCCN(c2nc(Nc3ccc(S(=O)(=O)N[C@H]4CC[C@H](CN5CCN(c6ccc(C7CCC(=O)NC7=O)cc6F)CC5)CC4)cc3)ncc2C(F)(F)F)C1 (stereo partly shown)  remaining binding (binding, competition with immobilised ligand; 1 µM): 1.3%

Excerpt of the above:
CCN1CCN(CC(=O)N2CCN(CC(OCc3ccc4ccccc4c3)c3ccc(Cl)cc3Cl)CC2)CC1 (stereo not shown)  activity vs control (enzyme activity, inhibitor, ADP detection; 0.1 µM): 118%
